Measurements pooled from the literature.
Protocols differ between the studies behind these lines. Numbers after ± are the reported error.

Structure (SMILES)	target or system	assay	system	conditions	measurement	result
N=C(N)NCCC[C@@H]1NC(=O)[C@H](CCCCNC(=O)CC[C@H](NC(=O)CCOCCOCCOCCOCCNC(=O)CC[C@H](NC(=O)CN2CCN(CC(=O)O)CCN(CC(=O)O)CCN(CC(=O)O)CC2)C(=O)NCCOCCOCCOCCOCCC(=O)N[C@@H](CCC(=O)NCCCC[C@@H]2NC(=O)[C@@H](Cc3ccccc3)NC(=O)[C@H](CC(=O)O)NC(=O)CNC(=O)[C@H](CCCNC(=N)N)NC2=O)C(=O)NCCCC[C@@H]2NC(=O)[C@@H](Cc3ccccc3)NC(=O)[C@H](CC(=O)O)NC(=O)CNC(=O)[C@H](CCCNC(=N)N)NC2=O)C(=O)NCCCC[C@@H]2NC(=O)[C@@H](Cc3ccccc3)NC(=O)[C@H](CC(=O)O)NC(=O)CNC(=O)[C@H](CCCNC(=N)N)NC2=O)NC(=O)[C@@H](Cc2ccccc2)NC(=O)[C@H](CC(=O)O)NC(=O)CNC1=O [indium-111 labelled]	–	–	female athymic nude mice, muscle	intravenous, 3 µCi, 4 h, U-87 MG glioma xenograft	tissue uptake	0.72 ± 0.23 %ID/g
COc1cc(OC)cc(C2=C3c4ccccc4C(c4ccc(NC(=S)NCCOCCOCCOCCC(=O)N[C@@H](CC(C)C)C(=O)N[C@@H](C)C(=O)N[C@@H](CCCNC(=N)N)C(=O)N[C@@H](CC(C)C)C(=O)N[C@@H](CC(C)C)C(=O)N[C@H](C(N)=O)[C@@H](C)O)cc4)=[N+]3[B-](F)(F)n3c2c2ccccc2c3-c2ccc(NC(=S)NCCNC(=O)CCCC[C@@H]3SC[C@@H]4NC(=O)N[C@@H]43)cc2)c1	–	–	DMSO	–	absorption maximum	650 nm
CCCC[C@H](NC(=O)CCCCCCCNC(=O)c1ccc(NN)nc1)C(=O)N[C@H]1CC(=O)NCCCC[C@@H](C(N)=O)NC(=O)[C@H](Cc2c[nH]c3ccccc23)NC(=O)[C@H](CCCNC(=N)N)NC(=O)[C@@H](Cc2ccccc2)NC(=O)[C@H](Cc2c[nH]cn2)NC1=O [technetium-99m labelled]	–	–	C57 mouse, B16/F1 melanoma, heart	2 h, together with: L-lysine 12 mg co-injected	tissue uptake	0.14 ± 0.01 %ID/g
N=C(N)NCCC[C@@H]1NC(=O)[C@H](CCCCNC(=O)CCOCCOCCOCCOCCNC(=O)CN2CCN(CC(=O)O)CCN(CC(=O)O)CCN(CC(=O)O)CC2)NC(=O)[C@@H](Cc2ccccc2)NC(=O)[C@H](CC(=O)O)NC(=O)CNC1=O [indium-111 labelled]	–	–	female athymic nude mice, muscle	intravenous, 3 µCi, 4 h, U-87 MG glioma xenograft	tissue uptake	0.27 ± 0.03 %ID/g
CCCC[C@H](NC(=O)CNC(=O)CNC(=O)c1ccc(NN)nc1)C(=O)N[C@H]1CC(=O)NCCCC[C@@H](C(N)=O)NC(=O)[C@H](Cc2c[nH]c3ccccc23)NC(=O)[C@H](CCCNC(=N)N)NC(=O)[C@@H](Cc2ccccc2)NC(=O)[C@H](Cc2c[nH]cn2)NC1=O [technetium-99m labelled]	–	–	C57 mouse, B16/F1 melanoma, heart	2 h, together with: L-lysine 12 mg	uptake	0.1 ± 0.05 %ID/g
CCCC[C@H](NC(=O)CNC(=O)CNC(=O)CNC(=O)c1ccc(NN)nc1)C(=O)N[C@H]1CC(=O)NCCCC[C@@H](C(N)=O)NC(=O)[C@H](Cc2c[nH]c3ccccc23)NC(=O)[C@H](CCCNC(=N)N)NC(=O)[C@@H](Cc2ccccc2)NC(=O)[C@H](Cc2c[nH]cn2)NC1=O [technetium-99m labelled]	–	–	C57 mouse, B16/F1 melanoma, stomach	intravenous, 2 h	uptake	0.43 ± 0.27 %ID/g
CN[C@](C)(C[18F])C(=O)O	A549 tumour model	–	host not given, muscle	2 h, tumour-bearing	tracer uptake	1.4 %ID/g
CSCC[C@H](NC(=O)[C@H](CC(C)C)NC(=O)[C@H](Cc1c[nH]cn1)NC(=O)CNC(=O)[C@@H](NC(=O)[C@H](C)NC(=O)[C@H](Cc1c[nH]c2ccccc12)NC(=O)[C@H](CCC(N)=O)NC(=O)CCCCCNC(=O)CNC(=O)CNC(=O)CNC(=O)CSC(C)=O)C(C)C)C(N)=O [technetium-99m labelled]	–	–	Swiss mouse, lung	intravenous, 18.5 MBq, 30 min	tissue uptake	0.51 ± 0.06 %ID/g
CC(C)C[C@H](NC(=O)[C@@H]1CCCN1C(=O)[C@H](CCCCN)NC(=O)[C@@H](N)CO)C(=O)N1CCC[C@H]1C(=O)N[C@@H](CCC(=O)O)C(=O)N[C@H](C(=O)N[C@H](C(=O)N[C@@H](CC(=O)O)C(=O)N[C@@H](CCC(=O)O)C(=O)N[C@@H](Cc1ccc(O)cc1)C(=O)N[C@@H](Cc1cn(CCOCCOCCOCCNC(=O)CCc2ccc(O)c(CN(CCN(CC(=O)O)Cc3cc(CCC(=O)NCCCC[C@H](NC(=O)N[C@@H](CCC(=O)O)C(=O)O)C(=O)O)ccc3O)CC(=O)O)c2)nn1)C(=O)O)[C@@H](C)O)C(C)C [gallium-68 labelled]	–	–	NMRI nu/nu mice, LNCaP tumour, blood	10 MBq, high molar activity	standardized uptake value	0.16 g/g
C[C@H](NC(=O)CNC(=O)[C@H](CCC(=O)O)NC(=O)[C@H](CCC(=O)O)NC(=O)[C@H](CC(=O)O)NC(=O)[C@@H]1CCCN1C(=O)[C@H](Cc1ccccc1)NC(=O)[C@H](CS)NC(=O)[C@H](Cc1ccc(O)cc1)NC(=O)CCCNC(=O)CNC(=O)CNC(=O)[C@@H](C)NC(=O)CN)C(=O)N[C@@H](CS)C(=O)N[C@@H](Cc1ccc(O)cc1)C(N)=O [technetium-99m labelled]	–	radio-HPLC	human serum	6 h, 37 °C, serum mix 1:10 v/v	radiochemical purity	90.57 ± 0.67%
N=C(N)NCCC[C@@H]1NC(=O)[C@H](CCCCNC(=O)CC[C@H](NC(=O)CCOCCOCCOCCOCCNC(=O)CN2CCN(CC(=O)O)CCN(CC(=O)O)CCN(CC(=O)O)CC2)C(=O)NCCCC[C@@H]2NC(=O)[C@@H](Cc3ccccc3)NC(=O)[C@H](CC(=O)O)NC(=O)CNC(=O)[C@H](CCCNC(=N)N)NC2=O)NC(=O)[C@@H](Cc2ccccc2)NC(=O)[C@H](CC(=O)O)NC(=O)CNC1=O [indium-111 labelled]	–	–	athymic nude mice, female, U-87 MG glioma xenograft, U-87 MG tumour	intravenous, 3 µCi, 24 h	tissue uptake	3.08 ± 0.6 %ID/g

Repeated from above:
Structure (SMILES)	target or system	assay	system	conditions	measurement	result
CN[C@](C)(C[18F])C(=O)O	A549 tumour model	–	host not given, muscle	2 h, tumour-bearing	tracer uptake	1.4 %ID/g
